Measurements collected from several papers.
Lines come from different studies, so protocols differ. Several values in a cell are separate wells, animals, samples, runs or records.

`CC[C@H](C)[C@@H]1NC(=O)[C@@H]2CCCN2C(=O)[C@H](CC(C)C)NC(=O)[C@H](CC(C)C)NC(=O)CNC(=O)[C@@H](NC(=O)[C@@H](NC(=O)[C@H](CC(=O)O)NC(=O)CNC(=O)[C@@H](NC(=O)[C@H](C)NC(=O)CNC(=O)[C@H](CCCCN)NC(=O)[C@H](CC(C)C)NC(=O)[C@H](CC(C)C)NC(=O)[C@H](CCCCN)NC(=O)CNC(=O)[C@@H](NC(=O)[C@@H](N)CC(C)C)C(C)C)C(C)C)C(C)C)CSSC[C@@H](C(=O)O)NC1=O` — result for “log2 fold change”: -3.08 (RNA-seq, refers to: Atp8b4; mouse, traumatic brain injury model, frontal cortex and hippocampus; dose not given; relative to: TBI alone).
For `CN1CCN(S(=O)(=O)c2cc([N+](=O)[O-])ccc2N(CCOS(C)(=O)=O)CCOS(C)(=O)=O)CC1`, “EFS delay (T-C)” read 51.9 days (NSG mice, sample BH PDX; intraperitoneal, 25 mg/kg weekly x3; relative to: vehicle).
`CCCCC1(CCCC)CN(c2ccccc2)c2cc(SC)c(OCC(=O)N[C@@H](C(=O)NCC(=O)O)c3ccccc3)cc2S(=O)(=O)C1` gave a serum HDL-C of 42 mg/dL (refers to: HDL cholesterol; human, serum; 15 mg once daily, day 5).
`Clc1cc2c(cc1Cl)Oc1cc(Cl)c(Cl)cc1O2`: “mRNA fold change” 1.2 fold (RNA-Seq, refers to: Ptger2; Sprague-Dawley rat, female, liver; 10 µg/kg; relative to: vehicle).
For `CC[C@H](C)[C@H](NC(=O)[C@H](CCCNC(=N)N)NC(=O)[C@H](CO)NC(=O)[C@H](Cc1ccc(O)cc1)NC(=O)[C@@H](NC(=O)[C@@H](NC(=O)[C@H](C)NC(=O)CN)C(C)C)[C@@H](C)O)C(=O)N[C@@H](CO)C(=O)NCC(=O)N[C@@H](CCC(N)=O)C(=O)N[C@@H](Cc1ccc(O)cc1)C(=O)O`, the MIC was > 512 µM (broth microdilution; 168, Mueller-Hinton broth; 16 to 18 h, 37 °C).
Under seizure protection, `C[C@]1(O)CC[C@@]2(C)[C@@H](CC[C@@H]3[C@@H]2CC[C@]2(C)[C@@H]([N+](=O)[O-])CC[C@@H]32)C1` is recorded as “inactive” (male NIH Swiss mice; i.p., dose not given, 15 min before test, pentylenetetrazol seizure model).
The IC50 of `COC(=O)c1c(-c2cc(OC)c(OC)c(OC)c2)c2ccc(OCc3ccccn3)cc2c(=O)n1-c1ccc(N)cc1` is reported as 3.98 µM (Plasmodium falciparum; 3D7).
With `C[C@H]1O[C@@H](O[C@H]2CC[C@@]3(C)[C@@H](CC[C@]4(C)[C@@H]3C=C[C@]35OC[C@@]6(CCC(C)(C)C[C@H]63)[C@@H](O)C[C@]54C)[C@]2(C)CO)[C@H](O)[C@@H](O[C@@H]2O[C@H](CO)[C@@H](O)[C@H](O)[C@H]2O)[C@H]1O` the mRNA level was 0.88 and 0.71 and 0.76 and 0.96 and 0.77 and 0.89 (refers to: FAS; chronic-plus-binge ethanol-fed mice, AAV8-TBG-Null, liver; dose not given, high dose, unit not given; relative to: AAV8-TBG-Null ethanol group).
`CCN(CC)CCOCCOC(=O)C1(c2ccccc2)CCCC1` has an IC50 of 12.6 µM (Plasmodium falciparum; 3D7).
Under “log2 fold change”, `O=C(O)Cc1c[nH]cn1` is recorded as -0.168 (binding, MIDAS equilibrium dialysis LC-MS; A2AR-BRIL thermostabilized; concentration not given; relative to: no-protein control).

Repeated from above:
Under seizure protection, `C[C@]1(O)CC[C@@]2(C)[C@@H](CC[C@@H]3[C@@H]2CC[C@]2(C)[C@@H]([N+](=O)[O-])CC[C@@H]32)C1` is recorded as “inactive” (male NIH Swiss mice; i.p., dose not given, 15 min before test, pentylenetetrazol seizure model).
For `CN1CCN(S(=O)(=O)c2cc([N+](=O)[O-])ccc2N(CCOS(C)(=O)=O)CCOS(C)(=O)=O)CC1`, “EFS delay (T-C)” read 51.9 days (NSG mice, sample BH PDX; intraperitoneal, 25 mg/kg weekly x3; relative to: vehicle).
